# Measured values collected from several papers.
# Values joined by “and” are separate records of one study, mostly repeats; a detail may differ. ± marks the error that the study gave.
# Chain of UniProt P08183 (whole entry, looked up): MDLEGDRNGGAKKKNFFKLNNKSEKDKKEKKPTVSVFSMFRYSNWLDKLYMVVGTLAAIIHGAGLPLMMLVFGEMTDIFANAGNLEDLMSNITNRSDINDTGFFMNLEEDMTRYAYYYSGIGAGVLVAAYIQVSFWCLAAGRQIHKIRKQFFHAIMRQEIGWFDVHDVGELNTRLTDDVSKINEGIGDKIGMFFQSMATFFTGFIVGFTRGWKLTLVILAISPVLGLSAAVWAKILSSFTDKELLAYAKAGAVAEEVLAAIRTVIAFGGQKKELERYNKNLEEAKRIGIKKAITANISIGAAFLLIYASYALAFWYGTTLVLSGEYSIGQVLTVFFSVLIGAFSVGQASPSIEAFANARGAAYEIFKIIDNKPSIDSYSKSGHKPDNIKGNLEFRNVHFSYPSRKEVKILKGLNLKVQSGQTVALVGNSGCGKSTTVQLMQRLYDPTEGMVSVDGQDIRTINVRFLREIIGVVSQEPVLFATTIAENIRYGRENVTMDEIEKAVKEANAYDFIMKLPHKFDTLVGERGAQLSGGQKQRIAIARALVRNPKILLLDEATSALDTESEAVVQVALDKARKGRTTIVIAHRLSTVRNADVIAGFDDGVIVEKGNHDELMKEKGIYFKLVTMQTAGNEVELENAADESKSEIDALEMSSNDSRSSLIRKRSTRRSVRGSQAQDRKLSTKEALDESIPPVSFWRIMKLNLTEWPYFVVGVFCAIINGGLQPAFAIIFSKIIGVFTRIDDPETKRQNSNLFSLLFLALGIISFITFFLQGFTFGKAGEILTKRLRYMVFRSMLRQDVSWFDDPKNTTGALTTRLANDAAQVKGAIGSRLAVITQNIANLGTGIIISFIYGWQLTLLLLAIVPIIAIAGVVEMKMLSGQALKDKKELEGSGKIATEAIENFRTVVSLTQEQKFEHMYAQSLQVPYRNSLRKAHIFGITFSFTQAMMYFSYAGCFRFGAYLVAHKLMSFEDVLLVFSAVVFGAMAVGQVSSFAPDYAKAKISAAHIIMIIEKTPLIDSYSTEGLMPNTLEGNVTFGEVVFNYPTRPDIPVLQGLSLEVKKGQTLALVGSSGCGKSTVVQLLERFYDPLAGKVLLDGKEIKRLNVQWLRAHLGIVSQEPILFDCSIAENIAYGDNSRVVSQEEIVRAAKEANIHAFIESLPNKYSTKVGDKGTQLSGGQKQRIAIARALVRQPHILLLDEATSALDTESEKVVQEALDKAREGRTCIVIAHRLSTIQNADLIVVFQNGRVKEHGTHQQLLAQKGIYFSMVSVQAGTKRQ
# Chain of UniProt P08263 (whole entry, looked up): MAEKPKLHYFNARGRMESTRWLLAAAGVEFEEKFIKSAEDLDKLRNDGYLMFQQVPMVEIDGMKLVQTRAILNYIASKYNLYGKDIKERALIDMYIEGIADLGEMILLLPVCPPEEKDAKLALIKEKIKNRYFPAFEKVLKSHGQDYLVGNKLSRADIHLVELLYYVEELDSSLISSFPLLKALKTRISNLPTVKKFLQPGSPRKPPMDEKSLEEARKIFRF
# Chain of UniProt P06276 (whole entry, looked up): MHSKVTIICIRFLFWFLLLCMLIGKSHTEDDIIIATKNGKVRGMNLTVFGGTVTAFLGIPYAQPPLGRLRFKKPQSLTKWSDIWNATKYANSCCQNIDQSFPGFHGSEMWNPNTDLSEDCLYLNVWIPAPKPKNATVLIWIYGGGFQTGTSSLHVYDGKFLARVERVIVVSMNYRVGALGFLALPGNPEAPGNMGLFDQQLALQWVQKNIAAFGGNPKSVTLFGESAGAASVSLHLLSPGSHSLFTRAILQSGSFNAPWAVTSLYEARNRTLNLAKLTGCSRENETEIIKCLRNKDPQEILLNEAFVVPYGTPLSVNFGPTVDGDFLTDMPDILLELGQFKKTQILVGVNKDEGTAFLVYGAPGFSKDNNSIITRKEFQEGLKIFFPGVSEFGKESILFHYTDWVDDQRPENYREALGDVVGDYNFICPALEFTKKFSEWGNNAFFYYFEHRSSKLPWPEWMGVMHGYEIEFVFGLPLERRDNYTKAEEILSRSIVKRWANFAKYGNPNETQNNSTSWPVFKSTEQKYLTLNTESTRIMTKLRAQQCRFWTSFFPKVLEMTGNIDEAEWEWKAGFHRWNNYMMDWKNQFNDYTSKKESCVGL
Structure (SMILES),tested on,assay,test system,conditions,scale,measurement,result
Cc1cc(C(=O)NC(C)(C)COc2cccc3c2C(N)=NS(=O)(=O)N3)cc(C)n1,Salmonella typhimurium,"Ames test, initial",TA98,1.50 µg/plate,baseline: solvent control,revertant ratio,1.3
C=C1C[C@@H]2[C@H](CC[C@]3(C)C(=O)CC[C@@H]23)[C@@]2(C)C=CC(=O)C=C12,"GSTA1 (Homo sapiens, UniProt P08263)","substrate, recombinant enzyme",,"250 µM, 1 h, 37 °C, enzyme 2.5 ng/µL, active if above 3-fold of mock, together with: glutathione 5 mM",,glutathione conjugation,active
OCc1ncc2n1-c1ccc(Cl)cc1C(c1ccccc1F)=NC2,CYP3A4,substrate,"human, plasma","oral, 2 mg midazolam, day 14, cocktail with binimetinib and encorafenib",,Cmax,56.7 ng/mL
[Cl-].[Cl-].[Pt+2].[Ru+2].c1ccc(-c2nc3cc4ccccc4cc3nc2-c2ccccn2)nc1.c1cnc2c(c1)ccc1cccnc12.c1cnc2c(c1)ccc1cccnc12,Danio rerio,,embryos,"75 µM, 24 h",,survival rate,80 ± 4.7%
CO[C@H]1C[C@@H]2CC[C@@H](C)[C@@](O)(O2)C(=O)C(=O)N2CCCC[C@H]2C(=O)O[C@H]([C@H](C)C[C@@H]2CC[C@@H](OC(=O)NCCOCCOCCOCCOCCOCCOCCOCCOCCC(=O)N3CCc4cc(Cn5nc(-c6ccc7oc(N)nc7c6)c6c(N)ncnc65)ccc4C3)[C@H](OC)C2)C[C@@H](O)[C@H](C)/C=C(\C)[C@@H](O)[C@@H](OC)C(=O)[C@H](C)C[C@H](C)/C=C/C=C/C=C/1C,,,patients with advanced solid tumours,"intravenous, 1.6 mg/3 mg weekly, grade ≥3",,incidence of Constipation TEAE,0%
Fc1ccc(C2=CCNCC2)cc1,Salmonella typhimurium,"genotoxicity, SOS/umu test",TA1535/pSK1002,"0.008 mg/mL, 4 h, without S9, full range",,induction factor,1.1
CC1(C(=O)O)C2CCC(O2)C1(C)C(=O)O (centres unmarked),Plasmodium falciparum,,7G8,,,IC50,3.98 µM
CC(C)[C@H](C(=O)O[C@H](C#N)c1cccc(Oc2ccccc2)c1)c1ccc(Cl)cc1,human cytosolic CES1,IVIVE from expressed enzymes,"human, 6 months old",,baseline: total hepatic CLint in vivo,relative enzyme contribution,26.8%
COc1cc2c(Oc3ccc4[nH]c(C)cc4c3F)ccnc2cc1OCC1(N)CC1,,,paediatric refractory sarcoma patients,12 mg,,blurred vision incidence,9.1%
CC(C)CC(=O)OC[C@H]1O[C@@](C#N)(c2ccc3c(N)ncnn23)[C@H](O)[C@@H]1O,"ABCB1 (Homo sapiens, UniProt P08183)",basolateral to apical transport,Caco-2,"0.9 µM, 2 h",,recovery,76.2%
OC(CCN1CC=C(c2ccc(F)cc2)CC1)c1ccc(F)c2ccccc12 (centres unmarked),Salmonella typhimurium,SOS/umu test,"TA1535/pSK1002, TGA medium","0.000488 mg/mL, 4 h, without S9",,survival,123%
COc1cccc(-c2n[nH]c(SCc3ccccn3)n2)c1OC,Salmonella typhimurium,"Ames test, plate incorporation",TA1535,"0.031 mg/plate, without S9",,revertant colonies per plate,15
O=c1ccc2ccccc2o1,NHEK,cell count,,"concentration not given, 1 h, XBP1 panel",,chance response,0.04%
C=CC/N=c1/scc(-c2ccccc2Br)n1/N=C/c1ccccn1,"Gag-Pol polyprotein, integrase (gag-pol, Human immunodeficiency virus 1, UniProt P12497)","strand transfer activity, inhibitor",,wild-type integrase,,IC50,> 100 µM
CCOC(=O)C1(CCOc2ccccc2)CCN(Cc2ccc(O)c(Cl)c2)CC1,"Cholinesterase (BCHE, Homo sapiens, UniProt P06276)",inhibitor,,,,IC50,10.9 ± 3.59 µM
CC(=O)N1CCC(C(=O)N2CCN3C(=O)c4cc(-c5ccccc5)ccc4NC(=O)C3C2)CC1 (centres unmarked),Escherichia coli,,WP2 uvrA,"158 µg/plate, without S9",,revertants per plate,26
O=C1c2c(O)c(=O)ccn2N([C@@H]2c3ccccc3SCc3c2ccc(F)c3F)[C@@H]2COCCN12,,,"BALB/c mice, plasma","oral, 1.5 mg/kg baloxavir marboxil, 0.5 h",,plasma concentration,12.9 ng/mL
[Cl-].[Cl-].[Pt+2].[Ru+2].c1ccc(-c2nccnc2-c2ccccn2)nc1.c1cnc2c(c1)ccc1cccnc12.c1cnc2c(c1)ccc1cccnc12,Danio rerio,,embryos,"15 µM, 48 h",,survival rate,90 ± 1.9%
Nc1ncnc2c([C@@H]3N[C@H](CO)[C@@H](O)[C@H]3O)c[nH]c12,HeLa,,,6.3 µM,,cell number,5870 and 5980
CCCC[C@H](NC(C)=O)C(=O)N[C@@H](CO)C(=O)N[C@H](C(=O)N1CCC[C@H]1C(=O)N[C@@H](C)C(=O)N[C@@H](CCCNC(=N)N)C(=O)N[C@@H](CCCNC(=N)N)C(=O)N[C@@H](CCCNC(=N)N)C(=O)N[C@@H](CC(C)C)C(=O)N[C@@H](CCCC)C(=O)N[C@@H](CCCNC(=N)N)C(=O)N[C@@H](CC(=O)O)C(=O)N[C@@H](Cc1ccccc1)C(=O)N[C@@H](CCCCN)C(=O)N[C@@H](CCCNC(=N)N)C(=O)N[C@@H](CC(C)C)C(=O)N[C@@H](CCC(N)=O)C(N)=O)[C@@H](C)O,proteinase K,LC-MS,,"25 µM, 81.9 min, pH 7.4",,remaining peptide,4.7% and 0%
Cc1scc2c1N(C(=O)CN1CCN(C)CC1)c1ccccc1NC2=O,Plasmodium falciparum,,D10,,,IC50,3.98 µM
CC1(C)[C@H](C=C(Cl)Cl)[C@H]1C(=O)OCc1cccc(Oc2ccccc2)c1,human cytosolic CES1,IVIVE from expressed enzymes,"human, liver, in vivo scaled","0.1 µM, age-specific",,enzyme contribution to CLint,33%
O=[N+]([O-])c1ccc(NC2CCNCC2)c(C(F)(F)F)c1,Salmonella typhimurium,"genotoxicity, SOS/umu test",TA1535/pSK1002,"0.004 mg/mL, 4 h, with S9, full range",,induction factor,0.7

# For quick reference, copied from above:
Structure (SMILES),tested on,assay,test system,conditions,scale,measurement,result
CC(C)[C@H](C(=O)O[C@H](C#N)c1cccc(Oc2ccccc2)c1)c1ccc(Cl)cc1,human cytosolic CES1,IVIVE from expressed enzymes,"human, 6 months old",,baseline: total hepatic CLint in vivo,relative enzyme contribution,26.8%
